Results collected from several papers.
Each line is one published result; not all experiments were run side by side. ± marks the error that the study gave.
Action: substrate
MALT1: Mucosa-associated lymphoid tissue lymphoma translocation protein 1 (MALT1, Homo sapiens, UniProt Q9UDY8)
HDAC6: Protein deacetylase HDAC6 (HDAC6, Homo sapiens, UniProt Q9UBN7)

Sequences of proteins named here, by UniProt entry; tags and fusion partners are left off. Residues count along the entry.
UniProt Q9UDY8, whole entry: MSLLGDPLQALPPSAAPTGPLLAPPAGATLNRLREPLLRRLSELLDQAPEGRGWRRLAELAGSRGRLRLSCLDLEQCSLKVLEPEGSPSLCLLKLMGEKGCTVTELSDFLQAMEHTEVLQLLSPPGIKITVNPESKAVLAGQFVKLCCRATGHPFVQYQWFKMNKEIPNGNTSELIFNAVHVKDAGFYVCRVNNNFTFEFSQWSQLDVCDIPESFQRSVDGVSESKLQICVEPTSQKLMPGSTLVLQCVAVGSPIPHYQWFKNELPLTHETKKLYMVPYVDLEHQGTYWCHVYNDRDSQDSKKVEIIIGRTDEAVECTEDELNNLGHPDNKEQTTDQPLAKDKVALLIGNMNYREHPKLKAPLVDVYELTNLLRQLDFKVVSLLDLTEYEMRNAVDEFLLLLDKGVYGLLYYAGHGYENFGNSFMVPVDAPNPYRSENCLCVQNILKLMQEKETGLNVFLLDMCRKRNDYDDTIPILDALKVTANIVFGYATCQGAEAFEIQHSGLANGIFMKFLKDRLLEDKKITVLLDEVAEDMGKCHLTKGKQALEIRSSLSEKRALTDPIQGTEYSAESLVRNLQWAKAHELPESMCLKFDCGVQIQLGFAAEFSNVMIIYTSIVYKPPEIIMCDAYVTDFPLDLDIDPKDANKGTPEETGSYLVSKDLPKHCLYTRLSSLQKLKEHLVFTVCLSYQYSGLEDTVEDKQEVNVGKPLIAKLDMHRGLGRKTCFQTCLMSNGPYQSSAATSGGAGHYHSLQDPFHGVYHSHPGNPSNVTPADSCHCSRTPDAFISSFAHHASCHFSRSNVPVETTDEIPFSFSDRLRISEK
UniProt Q9UBN7, whole entry: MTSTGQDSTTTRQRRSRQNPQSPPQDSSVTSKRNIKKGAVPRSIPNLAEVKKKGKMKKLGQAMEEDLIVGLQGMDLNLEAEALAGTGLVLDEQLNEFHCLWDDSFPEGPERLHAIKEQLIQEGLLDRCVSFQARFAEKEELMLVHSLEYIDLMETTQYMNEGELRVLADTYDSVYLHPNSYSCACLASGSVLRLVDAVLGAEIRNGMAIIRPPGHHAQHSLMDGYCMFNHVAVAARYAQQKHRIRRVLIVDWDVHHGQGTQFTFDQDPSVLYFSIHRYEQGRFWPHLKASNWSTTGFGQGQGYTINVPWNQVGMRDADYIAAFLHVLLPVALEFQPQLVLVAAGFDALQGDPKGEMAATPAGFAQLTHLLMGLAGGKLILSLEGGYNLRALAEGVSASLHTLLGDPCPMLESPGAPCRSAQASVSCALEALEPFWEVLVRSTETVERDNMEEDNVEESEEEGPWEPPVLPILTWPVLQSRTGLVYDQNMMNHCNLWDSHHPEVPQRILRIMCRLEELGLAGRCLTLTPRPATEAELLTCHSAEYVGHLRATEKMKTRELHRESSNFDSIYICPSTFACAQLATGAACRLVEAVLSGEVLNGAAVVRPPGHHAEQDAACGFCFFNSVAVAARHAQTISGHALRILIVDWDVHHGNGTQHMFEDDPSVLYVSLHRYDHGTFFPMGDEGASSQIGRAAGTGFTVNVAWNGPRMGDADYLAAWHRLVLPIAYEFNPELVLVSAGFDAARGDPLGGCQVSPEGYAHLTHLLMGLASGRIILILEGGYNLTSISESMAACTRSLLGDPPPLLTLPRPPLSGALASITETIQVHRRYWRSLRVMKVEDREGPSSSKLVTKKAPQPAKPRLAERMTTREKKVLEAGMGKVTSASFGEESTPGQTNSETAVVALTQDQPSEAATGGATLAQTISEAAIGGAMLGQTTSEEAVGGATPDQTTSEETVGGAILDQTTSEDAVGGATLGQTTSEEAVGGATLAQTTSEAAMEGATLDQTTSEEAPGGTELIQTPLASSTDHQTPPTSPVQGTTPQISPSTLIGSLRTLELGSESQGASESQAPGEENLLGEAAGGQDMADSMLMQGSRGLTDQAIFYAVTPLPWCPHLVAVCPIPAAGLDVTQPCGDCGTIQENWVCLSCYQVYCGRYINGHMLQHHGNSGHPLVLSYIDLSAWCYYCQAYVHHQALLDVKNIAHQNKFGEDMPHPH
UniProt O15379, whole entry: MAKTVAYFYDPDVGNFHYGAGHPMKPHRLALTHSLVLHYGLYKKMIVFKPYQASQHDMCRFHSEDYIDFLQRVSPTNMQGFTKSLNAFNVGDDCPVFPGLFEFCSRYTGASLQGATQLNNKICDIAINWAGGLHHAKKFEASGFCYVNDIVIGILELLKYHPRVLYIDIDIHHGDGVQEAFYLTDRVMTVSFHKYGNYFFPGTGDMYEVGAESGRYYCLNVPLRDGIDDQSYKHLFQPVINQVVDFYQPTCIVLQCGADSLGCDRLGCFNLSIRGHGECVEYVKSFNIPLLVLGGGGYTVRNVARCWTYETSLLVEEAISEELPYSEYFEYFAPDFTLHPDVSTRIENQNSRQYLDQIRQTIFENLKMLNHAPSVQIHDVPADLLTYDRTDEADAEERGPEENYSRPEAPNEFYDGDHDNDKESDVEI
UniProt Q9Y618, 389-480 partner limits assumed: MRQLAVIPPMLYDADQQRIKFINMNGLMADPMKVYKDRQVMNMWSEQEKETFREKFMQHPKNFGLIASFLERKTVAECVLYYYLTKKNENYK
UniProt Q9NY33, whole entry: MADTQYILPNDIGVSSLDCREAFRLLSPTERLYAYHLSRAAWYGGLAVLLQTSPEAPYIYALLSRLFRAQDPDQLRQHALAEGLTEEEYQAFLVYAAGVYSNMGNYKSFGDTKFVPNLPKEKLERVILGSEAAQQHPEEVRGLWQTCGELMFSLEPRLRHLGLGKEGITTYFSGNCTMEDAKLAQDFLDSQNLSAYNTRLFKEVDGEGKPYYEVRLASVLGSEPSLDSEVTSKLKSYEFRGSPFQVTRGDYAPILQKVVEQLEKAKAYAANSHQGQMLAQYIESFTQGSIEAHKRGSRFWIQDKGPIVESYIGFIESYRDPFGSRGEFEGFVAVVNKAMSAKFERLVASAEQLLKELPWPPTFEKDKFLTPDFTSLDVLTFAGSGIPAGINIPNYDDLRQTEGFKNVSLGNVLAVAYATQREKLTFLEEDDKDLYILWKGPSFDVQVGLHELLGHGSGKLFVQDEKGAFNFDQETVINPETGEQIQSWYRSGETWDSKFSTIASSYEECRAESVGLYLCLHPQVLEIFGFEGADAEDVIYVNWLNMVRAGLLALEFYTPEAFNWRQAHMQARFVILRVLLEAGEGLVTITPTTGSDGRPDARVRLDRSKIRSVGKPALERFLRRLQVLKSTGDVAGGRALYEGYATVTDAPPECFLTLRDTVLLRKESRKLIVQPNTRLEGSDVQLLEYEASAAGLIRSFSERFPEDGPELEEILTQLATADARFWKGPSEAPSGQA
UniProt O60502, whole entry: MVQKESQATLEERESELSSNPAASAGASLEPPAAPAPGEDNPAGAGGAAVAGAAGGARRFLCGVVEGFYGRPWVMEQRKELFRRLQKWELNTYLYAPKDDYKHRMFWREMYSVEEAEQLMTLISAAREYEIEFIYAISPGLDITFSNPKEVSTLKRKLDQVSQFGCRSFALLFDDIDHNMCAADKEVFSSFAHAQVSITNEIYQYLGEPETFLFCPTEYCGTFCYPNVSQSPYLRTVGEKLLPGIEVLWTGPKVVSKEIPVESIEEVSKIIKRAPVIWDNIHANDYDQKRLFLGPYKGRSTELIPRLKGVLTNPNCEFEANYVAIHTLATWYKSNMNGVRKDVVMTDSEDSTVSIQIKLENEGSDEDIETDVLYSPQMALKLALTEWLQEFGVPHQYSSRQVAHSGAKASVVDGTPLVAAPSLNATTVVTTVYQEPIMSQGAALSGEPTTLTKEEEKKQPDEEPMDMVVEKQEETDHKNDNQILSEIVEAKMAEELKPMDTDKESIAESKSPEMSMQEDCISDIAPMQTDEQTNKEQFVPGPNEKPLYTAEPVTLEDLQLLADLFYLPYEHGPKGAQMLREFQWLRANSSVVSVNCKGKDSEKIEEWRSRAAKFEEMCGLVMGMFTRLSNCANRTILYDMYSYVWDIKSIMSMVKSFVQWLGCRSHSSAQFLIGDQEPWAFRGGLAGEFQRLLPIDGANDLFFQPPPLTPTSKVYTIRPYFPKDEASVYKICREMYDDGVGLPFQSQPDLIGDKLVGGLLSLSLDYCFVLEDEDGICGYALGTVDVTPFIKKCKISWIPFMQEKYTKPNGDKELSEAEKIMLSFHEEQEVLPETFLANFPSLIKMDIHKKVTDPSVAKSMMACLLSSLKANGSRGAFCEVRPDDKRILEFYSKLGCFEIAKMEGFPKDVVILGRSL
UniProt Q9BY41, whole entry: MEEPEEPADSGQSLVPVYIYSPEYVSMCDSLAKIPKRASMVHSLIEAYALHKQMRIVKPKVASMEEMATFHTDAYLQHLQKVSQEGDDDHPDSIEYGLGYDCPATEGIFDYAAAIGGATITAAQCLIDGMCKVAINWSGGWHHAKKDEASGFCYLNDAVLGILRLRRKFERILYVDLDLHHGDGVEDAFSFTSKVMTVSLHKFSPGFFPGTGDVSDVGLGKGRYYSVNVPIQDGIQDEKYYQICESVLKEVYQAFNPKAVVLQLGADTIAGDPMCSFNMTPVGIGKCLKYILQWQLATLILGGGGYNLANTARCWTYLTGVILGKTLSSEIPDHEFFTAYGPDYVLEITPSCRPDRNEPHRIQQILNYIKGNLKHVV
UniProt Q99797, 36-713 limits assumed: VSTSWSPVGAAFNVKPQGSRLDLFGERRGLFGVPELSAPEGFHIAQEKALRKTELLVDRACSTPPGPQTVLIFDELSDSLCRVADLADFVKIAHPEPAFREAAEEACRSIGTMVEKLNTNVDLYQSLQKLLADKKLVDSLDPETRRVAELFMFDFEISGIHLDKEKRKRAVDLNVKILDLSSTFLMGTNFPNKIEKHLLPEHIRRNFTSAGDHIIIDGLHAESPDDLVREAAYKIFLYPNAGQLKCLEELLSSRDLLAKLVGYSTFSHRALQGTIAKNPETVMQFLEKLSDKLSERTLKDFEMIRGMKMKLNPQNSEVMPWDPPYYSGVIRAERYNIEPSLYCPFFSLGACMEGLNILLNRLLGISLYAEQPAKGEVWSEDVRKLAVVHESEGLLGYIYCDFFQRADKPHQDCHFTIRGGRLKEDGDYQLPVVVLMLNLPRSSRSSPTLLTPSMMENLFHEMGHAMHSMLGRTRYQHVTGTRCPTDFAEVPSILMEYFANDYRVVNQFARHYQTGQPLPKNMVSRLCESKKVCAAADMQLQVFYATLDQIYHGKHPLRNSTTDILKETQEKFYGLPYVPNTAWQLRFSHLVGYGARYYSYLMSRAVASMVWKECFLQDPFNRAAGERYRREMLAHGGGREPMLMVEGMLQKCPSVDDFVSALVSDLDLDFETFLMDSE

The Km of `CC(=O)N[C@@H](CC(C)C)C(=O)N[C@@H](CCCNC(=N)N)C(=O)N[C@@H](CO)C(=O)N[C@@H](CCCNC(=N)N)C(=O)Nc1ccc2c(C(F)(F)F)cc(=O)oc2c1` is reported as 37.4 µM (MALT1; fluorogenic peptide hydrolysis; 20 min preincubation, pH 7.5, 37 °C, enzyme 399 nM, citrate 0.9 M).
`CCC(=O)NCCCC[C@H](NC(=O)CNC(=O)[C@H](CC(C)C)NC(C)=O)C(=O)Nc1ccc2c(C)cc(=O)oc2c1` gave a Km of < 10 µM (Histone deacetylase 3/Nuclear receptor corepressor 2 (HDAC3/NCoR2) (Homo sapiens, UniProt O15379+Q9Y618); fluorogenic trypsin-coupled; pH 7.4, 25 °C).
The Km of `CC[C@H](C)[C@H](NC(=O)[C@H](Cc1ccc(O)cc1)NC(=O)[C@@H](NC(=O)[C@H](CCCNC(=N)N)NC(=O)[C@@H](N)CC(=O)O)C(C)C)C(=O)N[C@@H](Cc1cnc[nH]1)C(=O)N1CCC[C@H]1C(=O)O` is reported as 12 ± 2 µM (DPP3 (Homo sapiens, UniProt Q9NY33); radiolabelled substrate hydrolysis; 37 °C, added: 0.5 nM iodinated substrate).
`CC(=O)N[C@H]1[C@H](OC[C@H](NC(=O)[C@H](Cc2c[nH]cn2)NC(C)=O)C(=O)NCC(N)=O)O[C@H](CO)[C@@H](O)[C@@H]1O` gave a Km of 525 ± 13 µM (Protein O-GlcNAcase (OGA, Homo sapiens, UniProt O60502); pH 7.5, 37 °C, added: 4MU-GlcNAc 200 µM competition).
For `CC(=O)NCCCC[C@H](NC(C)=O)C(=O)Nc1ccc2c(C)cc(=O)oc2c1`, the Km was 4200 ± 1700 µM (HDAC8 (Homo sapiens, UniProt Q9BY41); 25 °C).
`CC(=O)N[C@@H](C)C(=O)N[C@@H](CC(C)C)C(=O)N[C@H](C(=O)N[C@@H](CO)C(=O)N[C@@H](CCCNC(=N)N)C(=O)Nc1ccc2c(CC(N)=O)cc(=O)oc2c1)C(C)C` has a Km of 7.1 µM (MALT1; fluorogenic peptide hydrolysis; 20 min preincubation, pH 7.5, 37 °C, enzyme 399 nM, citrate 0.9 M).
For `CC(=O)NCCCC[C@H](NC(C)=O)C(N)=O`, the Km was 800 ± 300 µM (HDAC6; 25 °C).
The Km of `CC(C)[C@H](NC(=O)c1ccccc1N)C(=O)N[C@@H](C)C(=O)N[C@@H](C)C(=O)N[C@@H](CCC(N)=O)C(=O)N[C@H](C(=O)N[C@@H](CCCCN)C(=O)N[C@H](C(=O)N[C@@H](CCCCNc1ccc([N+](=O)[O-])cc1[N+](=O)[O-])C(N)=O)[C@@H](C)O)[C@@H](C)O` is reported as 10 µM (Mitochondrial intermediate peptidase (MIPEP, Homo sapiens, UniProt Q99797); FRET peptide hydrolysis).
`CC(=O)NCCCC[C@H](NC(=O)[C@H](CCCCNC(C)=O)NC(=O)[C@H](Cc1c[nH]cn1)NC(=O)[C@H](CCCNC(=N)N)NC(C)=O)C(N)=O` gave a Km of 370 ± 150 µM (HDAC6; 25 °C).
`Cc1cc(=O)oc2cc(NC(=O)[C@H](Cc3ccc(O)cc3)NC(=O)[C@@H](NC(=O)[C@H](CC(C)C)NC(=O)[C@H](CC(C)C)NC(=O)CCC(=O)O)C(C)C)ccc12` gave a Km of 8.4 ± 1.3 µM (PSMB5 (Homo sapiens, UniProt P28074); chymotrypsin-like activity; pH 7.8, 37 °C, added: oligomeric Aβ(1-42) 0.5 µM).

A few entries again:
The Km of `CC(=O)N[C@@H](CC(C)C)C(=O)N[C@@H](CCCNC(=N)N)C(=O)N[C@@H](CO)C(=O)N[C@@H](CCCNC(=N)N)C(=O)Nc1ccc2c(C(F)(F)F)cc(=O)oc2c1` is reported as 37.4 µM (MALT1; fluorogenic peptide hydrolysis; 20 min preincubation, pH 7.5, 37 °C, enzyme 399 nM, citrate 0.9 M).
